Experimental data of several laboratories.
Compare with care: the assays were run in different laboratories. Several values in a cell are separate wells, animals, samples, runs or records. ± marks the error that the study gave.
UniProt P50052, sequence (whole entry, looked up): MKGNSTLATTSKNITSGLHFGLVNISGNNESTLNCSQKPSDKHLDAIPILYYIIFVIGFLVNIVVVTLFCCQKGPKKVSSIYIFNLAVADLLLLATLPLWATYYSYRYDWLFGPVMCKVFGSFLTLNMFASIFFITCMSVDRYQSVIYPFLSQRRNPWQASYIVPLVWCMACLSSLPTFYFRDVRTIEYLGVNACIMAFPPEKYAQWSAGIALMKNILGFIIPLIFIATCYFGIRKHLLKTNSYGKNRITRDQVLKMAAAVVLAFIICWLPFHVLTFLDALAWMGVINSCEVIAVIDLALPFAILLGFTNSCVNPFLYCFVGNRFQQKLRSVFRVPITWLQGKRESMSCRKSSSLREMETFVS

The health score of `N=C(N)NCCC[C@H](NC(=O)[C@H](CCCNC(=N)N)NC(=O)[C@H](CCCNC(=N)N)NC(=O)[C@H](CCC(N)=O)NC(=O)[C@H](CCCNC(=N)N)NC(=O)[C@H](CCCNC(=N)N)NC(=O)[C@H](CCCCN)NC(=O)[C@H](CCCCN)NC(=O)[C@H](CCCNC(=N)N)NC(=O)CNC(=O)[C@H](Cc1ccc(O)cc1)NC(=O)[C@H](Cc1ccccc1)NC(=O)[C@H](Cc1ccccc1)NC(=O)[C@H](Cc1ccccc1)NC(=O)Cc1ccc2ccccc2c1)C(=O)O` is reported as 5 (C57BL/6 mice; intraperitoneal, 5 mg/kg, 2 h; direction not given).
For `COc1cnc2cccc(N3CCc4c(cc(Cn5ccnc5)cc4-c4cn(C)nc4C(F)(F)F)C3=O)c2c1`, the body weight was 20.6 g and 23.2 g and 22.3 g and 22.1 g and 25.1 g (BALB/c nude mice, MV4-11 xenograft; intraperitoneal, 100 mg/kg, day 17).
`CSCC[C@H](NC(=O)CNC(=O)[C@H](CCCCN)NC(=O)[C@H](CC(C)C)NC(=O)[C@@H]1CCCN1C(=O)[C@H](CO)NC(=O)[C@H](Cc1c[nH]cn1)NC(=O)[C@H](Cc1c[nH]c2ccccc12)NC(=O)[C@H](CCCNC(=N)N)NC(=O)[C@H](CC(C)C)NC(=O)[C@H](CCCNC(=N)N)NC(=O)[C@H](Cc1c[nH]c2ccccc12)NC(=O)[C@H](CS)NC(=O)CCCCCNC(=O)CN1CCN(CC(=O)O)CCN(CC(=O)O)CCN(CC(=O)O)CC1)C(=O)O` [copper-64 labelled] gave a tissue uptake of 1.18 %ID/g (ex vivo biodistribution; male C57BL/6J mice, pancreas; intravenous, 1.85 MBq, 30 h, B16-F10 tumour-bearing).
`CCCCC(CC)COC(=O)CC(C(=O)OCC(CC)CCCC)S(=O)(=O)O.CCCSc1ccc2[nH]c(NC(=O)OC)nc2c1` (stereo not shown) gave a solubility of about 30 mg/mL (visual inspection; Labrasol).
`Cn1nc(NS(C)(=O)=O)c2c(Cl)ccc(-n3c([C@H](Cc4cc(F)cc(F)c4)NC(=O)Cn4nc(C(F)F)c5c4C(F)(F)[C@@H]4C[C@H]54)nc4nc(OCCC(F)(F)F)ccc4c3=O)c21` gave an AUC(0-inf) of 24400 ng·h/mL (human, plasma; oral, 625 mg single dose, powder in bottle, geometric mean).
With `CC(C)[C@H](NC(=O)[C@@H](NC(=O)[C@H](CCCNC(=N)N)NC(=O)[C@H](CCCNC(=N)N)NC(=O)[C@H](CCCNC(=N)N)NC(=O)[C@H](CCC(N)=O)NC(=O)[C@H](CCCNC(=N)N)NC(=O)[C@H](CCCNC(=N)N)NC(=O)[C@H](CCCCN)NC(=O)[C@H](CCCCN)NC(=O)[C@H](CCCNC(=N)N)NC(=O)CN)[C@@H](C)O)C(=O)N[C@H](C(=O)N[C@@H](CO)C(=O)N1CCC[C@H]1C(=O)O)[C@@H](C)O` the organ weight was 0.089 ± 0.028 g (ICR mice, female, spleen; intranasal, 20 mg/kg daily, 4 weeks).
The clearance of `CC(C)=CCC/C(C)=C/CCn1cc(CC(P(=O)(O)O)P(=O)(O)O)nn1` is reported as 5.6 mL/min/kg (CD-1 mouse, plasma; intravenous, 0.5 mg/kg, single dose).
For `CSCC[C@H](N)C(=O)N[C@@H](C)C(=O)N[C@@H](CCCNC(=N)N)C(=O)N[C@@H](CCCNC(=N)N)C(=O)N[C@@H](CC(=O)O)C(=O)N[C@@H](CCCCN)C(=O)N[C@H](C(=O)N[C@@H](CC(=O)O)C(=O)N[C@@H](Cc1ccccc1)C(=O)N[C@@H](C)C(=O)N[C@@H](CCCNC(=N)N)C(=O)N[C@@H](CCCNC(=N)N)C(=O)N[C@@H](CCCNC(=N)N)C(=O)N[C@@H](CCCNC(=N)N)C(=O)NCCCCCC(=O)NCCCCC(NC(=O)CCCCCNC(=O)[C@H](CCCNC(=N)N)NC(=O)[C@H](CCCNC(=N)N)NC(=O)[C@H](CCCNC(=N)N)NC(=O)[C@H](CCCNC(=N)N)NC(=O)[C@H](C)NC(=O)[C@H](Cc1ccccc1)NC(=O)[C@H](CC(=O)O)NC(=O)[C@@H](NC(=O)[C@H](CCCCN)NC(=O)[C@H](CC(=O)O)NC(=O)[C@H](CCCNC(=N)N)NC(=O)[C@H](CCCNC(=N)N)NC(=O)[C@H](C)NC(=O)[C@@H](N)CCSC)[C@@H](C)O)C(=O)NCCCCC(NC(=O)C(CCCCNC(=O)CCCCCNC(=O)[C@H](CCCNC(=N)N)NC(=O)[C@H](CCCNC(=N)N)NC(=O)[C@H](CCCNC(=N)N)NC(=O)[C@H](CCCNC(=N)N)NC(=O)[C@H](C)NC(=O)[C@H](Cc1ccccc1)NC(=O)[C@H](CC(=O)O)NC(=O)[C@@H](NC(=O)[C@H](CCCCN)NC(=O)[C@H](CC(=O)O)NC(=O)[C@H](CCCNC(=N)N)NC(=O)[C@H](CCCNC(=N)N)NC(=O)[C@H](C)NC(=O)[C@@H](N)CCSC)[C@@H](C)O)NC(=O)CCCCCNC(=O)[C@H](CCCNC(=N)N)NC(=O)[C@H](CCCNC(=N)N)NC(=O)[C@H](CCCNC(=N)N)NC(=O)[C@H](CCCNC(=N)N)NC(=O)[C@H](C)NC(=O)[C@H](Cc1ccccc1)NC(=O)[C@H](CC(=O)O)NC(=O)[C@@H](NC(=O)[C@H](CCCCN)NC(=O)[C@H](CC(=O)O)NC(=O)[C@H](CCCNC(=N)N)NC(=O)[C@H](CCCNC(=N)N)NC(=O)[C@H](C)NC(=O)[C@@H](N)CCSC)[C@@H](C)O)C(N)=O)[C@@H](C)O` (stereo partly shown), “mean tissue distribution” read 1.91% (C57BL/6 mouse female, lungs; dose not given, 3 h; relative to: total).
With `CC[C@H](C)[C@H](NC(=O)[C@H](CCCCN)NC(=O)CNC(=O)[C@H](CC(C)C)NC(=O)[C@H](Cc1ccccc1)NC(=O)[C@H](CCCCN)NC(=O)[C@H](CO)NC(=O)[C@H](Cc1ccccc1)NC(=O)[C@H](Cc1c[nH]c2ccccc12)NC(=O)[C@H](CCC(N)=O)NC(=O)[C@@H](NC(=O)[C@H](Cc1ccccc1)NC(=O)CCCCCNC(=O)CN1CCN(CC(=O)O)CCN(CC(=O)O)CCN(CC(=O)O)CC1)C(C)C)C(=O)N[C@@H](CCC(=O)O)C(=O)N1CCC[C@H]1C(=O)N[C@@H](CC(=O)O)C(=O)N[C@H](C(=O)N[C@@H](CO)C(=O)N[C@@H](CCC(N)=O)C(=O)N[C@H](C(=O)N[C@@H](CCC(N)=O)C(=O)N[C@@H](CC(=O)O)C(=O)N1CCC[C@H]1C(=O)N[C@@H](CC(N)=O)C(=O)N[C@@H](CC(=O)O)C(=O)N[C@@H](CCC(N)=O)C(=O)N[C@@H](Cc1ccc(O)cc1)C(=O)N[C@@H](CCC(=O)O)C(=O)N1CCC[C@H]1C(=O)N[C@@H](Cc1ccccc1)C(=O)O)C(C)C)C(C)C` [copper-64 labelled] the tissue uptake was 3.41 ± 0.3 %ID/g (C57BL/6 mice, lung; together with: LPS 0.1 mg/kg intratracheal).
For `CS(C)(=O)=Nc1ccc(-c2ccc(-c3nc4cc(O[C@@H]5CO[C@H]6[C@@H]5OC[C@H]6O)[nH]c4cc3F)cc2)cc1`, the inhibition was -6% (Type-2 angiotensin II receptor (AGTR2, Homo sapiens, UniProt P50052); ligand displacement, radioligand; 10 µM).
`O=C1NC2(CC2)COc2ncc(F)cc2[C@H]2COCCN2c2ccn3ncc1c3n2` gave a reticulocytes of 2.57 ± 0.55% (Sprague-Dawley rat, male, blood; oral, 5 mg/kg/day, end of recovery, 4-week repeated-dose toxicity; relative to: red blood cells).
`CC(C)C[C@H](NC(=O)[C@H](Cc1ccc(O)cc1)NC(=O)[C@H](Cc1c[nH]cn1)NC(=O)[C@H](CC(=O)O)NC(=O)[C@@H](NC(=O)[C@H](C)NC(=O)[C@H](CC(C)C)NC(=O)CNC(=O)CNC(=O)[C@@H](NC(=O)[C@@H](NC(=O)[C@H](CCCCN)NC(=O)CNC(=O)[C@@H](NC(=O)[C@H](CCCCN)NC(=O)[C@H](CCCCN)NC(=O)[C@H](C)NC(=O)[C@H](CCCNC(=N)N)NC(=O)[C@H](CC(N)=O)NC(=O)[C@H](Cc1ccccc1)NC(=O)[C@H](Cc1c[nH]c2ccccc12)NC(=O)[C@H](CCCCN)NC(=O)[C@H](CCCCN)NC(=O)[C@H](Cc1c[nH]c2ccccc12)NC(=O)CN)C(C)C)[C@@H](C)O)C(C)C)C(C)C)C(N)=O`: “chronic toxic concentration” 5 µM (zebrafish embryos 4 hpf, E3 medium; 24 h).
`CCCCCCCCCCCCCCCC(=O)N[C@@H](CCC(=O)NCCOCCOCCC(=O)NCCOCCOCCC(=O)NCCCC[C@H](NC(=O)[C@H](CC(=O)O)NC(=O)[C@H](CC(C)C)NC(=O)[C@H](Cc1ccc(O)cc1)NC(=O)[C@H](CCCCN)NC(=O)[C@H](CO)NC(=O)[C@H](Cc1ccc(O)cc1)NC(=O)[C@H](CC(=O)O)NC(=O)[C@H](CO)NC(=O)[C@@H](NC(=O)[C@H](Cc1ccccc1)NC(=O)[C@@H](NC(=O)CNC(=O)[C@H](CCC(N)=O)NC(=O)[C@@H](CO)NC(=O)[C@@H](N)Cc1c[nH]cn1)[C@@H](C)O)[C@@H](C)O)C(=O)N[C@@H](CCCNC(=N)N)C(=O)N[C@@H](CCCNC(=N)N)C(=O)N[C@@H](C)C(=O)N[C@@H](CCC(N)=O)C(=O)N[C@@H](CC(=O)O)C(=O)N[C@@H](Cc1ccccc1)C(=O)N[C@H](C(=O)N[C@@H](CCC(N)=O)C(=O)N[C@@H](Cc1c[nH]c2ccccc12)C(=O)N[C@@H](CC(C)C)C(=O)N[C@@H](CC(C)C)C(=O)N[C@@H](CC(N)=O)C(=O)N[C@H](C(=O)NCC(=O)NCC(=O)N1CCC[C@H]1C(=O)N[C@@H](CO)C(=O)N[C@@H](CO)C(=O)NCC(=O)N[C@@H](C)C(=O)N1CCC[C@H]1C(=O)N1CCC[C@H]1C(=O)N1CCC[C@H]1C(=O)N[C@@H](CO)C(N)=O)[C@@H](C)O)C(C)C)C(=O)O` has a Cmax of 14.8 ng/mL (rhesus monkey, plasma; subcutaneous, 20 µg/kg, multiple doses).
For `COc1ccc(CNc2ccc3c(c2)S(=O)(=O)C=C3)cc1`, “Gr-1+ CD11b+ cells” read 0.71% (flow cytometry; male C57BL/6 mice, spleen; i.p., 5 mg/kg, 8 days; relative to: CD45+ cells).
`COc1ccccc1-c1n[nH]c2nc(N[C@H]3CC[C@H](NS(=O)(=O)CC(C)C)CC3)ncc12` has a relative abundance of 0.76 (bead binding, competition bead pull-down, refers to: LINJ.35.3390; Leishmania donovani extract; 10 µM; relative to: vehicle).
`CC[C@H](C)[C@H](NC(=O)[C@H](CCCNC(=N)N)NC(=O)[C@H](CCCNC(=N)N)NC(=O)[C@H](CC(C)C)NC(=O)[C@@H](N)Cc1c[nH]c2ccccc12)C(=O)NCC(=O)N[C@@H](CCCCN)C(=O)NCC(=O)N[C@H](C(=O)N[C@@H](CCCCN)C(=O)N[C@H](C(=O)N[C@H](C(=O)NCC(=O)NCC(=O)N[C@@H](C)C(=O)N[C@@H](C)C(=O)N[C@@H](CC(C)C)C(=O)N[C@@H](CC(=O)O)C(=O)N[C@@H](Cc1c[nH]cn1)C(=O)N[C@@H](CC(C)C)C(N)=O)[C@@H](C)CC)[C@@H](C)CC)C(C)C` — result for “chronic toxic concentration”: 25 µM (zebrafish embryos 4 hpf, E3 medium; 24 h).
The log GI50 of `CC(C)(C)C(=O)OCOP(=O)(OCOC(=O)C(C)(C)C)C1CCCN(O)C1=O` (stereo not shown) is reported as -5.69 log M (PC-3).
For `COc1ccccc1-c1n[nH]c2nc(NC3CCN(C(=O)Cc4ccc(F)cc4F)CC3)ncc12`, the relative abundance was 1.02 (bead binding, competition bead pull-down, refers to: LINJ.35.1190; Leishmania donovani extract; 10 µM; relative to: vehicle).
`CCOP(=O)(CNC(=O)CN1CCN(CC(=O)NCP(=O)(OCC)OCC)CCN(CC(=O)NCP(=O)(OCC)OCC)CCN(CC(=O)NCP(=O)(OCC)OCC)CC1)OCC.[177Lu+3]` has a logP of -3.37 ± 0.19 (octanol/water; room temperature).

Repeated from above:
The health score of `N=C(N)NCCC[C@H](NC(=O)[C@H](CCCNC(=N)N)NC(=O)[C@H](CCCNC(=N)N)NC(=O)[C@H](CCC(N)=O)NC(=O)[C@H](CCCNC(=N)N)NC(=O)[C@H](CCCNC(=N)N)NC(=O)[C@H](CCCCN)NC(=O)[C@H](CCCCN)NC(=O)[C@H](CCCNC(=N)N)NC(=O)CNC(=O)[C@H](Cc1ccc(O)cc1)NC(=O)[C@H](Cc1ccccc1)NC(=O)[C@H](Cc1ccccc1)NC(=O)[C@H](Cc1ccccc1)NC(=O)Cc1ccc2ccccc2c1)C(=O)O` is reported as 5 (C57BL/6 mice; intraperitoneal, 5 mg/kg, 2 h; direction not given).
`CC(C)C[C@H](NC(=O)[C@H](Cc1ccc(O)cc1)NC(=O)[C@H](Cc1c[nH]cn1)NC(=O)[C@H](CC(=O)O)NC(=O)[C@@H](NC(=O)[C@H](C)NC(=O)[C@H](CC(C)C)NC(=O)CNC(=O)CNC(=O)[C@@H](NC(=O)[C@@H](NC(=O)[C@H](CCCCN)NC(=O)CNC(=O)[C@@H](NC(=O)[C@H](CCCCN)NC(=O)[C@H](CCCCN)NC(=O)[C@H](C)NC(=O)[C@H](CCCNC(=N)N)NC(=O)[C@H](CC(N)=O)NC(=O)[C@H](Cc1ccccc1)NC(=O)[C@H](Cc1c[nH]c2ccccc12)NC(=O)[C@H](CCCCN)NC(=O)[C@H](CCCCN)NC(=O)[C@H](Cc1c[nH]c2ccccc12)NC(=O)CN)C(C)C)[C@@H](C)O)C(C)C)C(C)C)C(N)=O`: “chronic toxic concentration” 5 µM (zebrafish embryos 4 hpf, E3 medium; 24 h).
